{"data": "Results from different studies", "note": "Numbered parts are unrelated; each lists some results of a single study. Substitutions count along the parent as printed."}
{"data": "Sample 1", "target": "Interferon regulatory factor 5, full length, phosphomimetic (IRF5, Homo sapiens, UniProt Q13568-2, residues 1-514, S451D/S453D/S456D/S462D)", "method": "protein-binding microarray", "molecule type": "double-stranded DNA, one strand shown", "medium": "in vitro", "concentration": "940 nM top", "notes": "60-bp whole probe", "together with": "salmon DNA 0.4 mg/ml", "baseline": "random background probes", "reading": "higher = stronger binding", "shared flanks, not repeated": "GCCTAGCAC … GTCTTGATTCGCTTGACGCTGCTG"}
{"Oligonucleotide": "TCCAAATTGTCTCTGTCCCTGTGCTAG", "fitted relative affinity": "1.29 z-score"}
{"Oligonucleotide": "GACGAACTGGGGACGGGAGACGTGCTA", "fitted relative affinity": "0.11 z-score"}
{"Oligonucleotide": "AACGATTTCGGGTTTCGAGACGTGCTA", "fitted relative affinity": "2.26 z-score"}
{"Oligonucleotide": "TCACAATTCTCTTTTCAACTGTGCTAG", "fitted relative affinity": "1.12 z-score"}
{"Oligonucleotide": "TTAGAACTGGGGTATCGATTGGTGCTA", "fitted relative affinity": "2.63 z-score"}
{"Oligonucleotide": "GATGATTTCGGGTTTCGAGACGTGCTA", "fitted relative affinity": "2.44 z-score"}
{"Oligonucleotide": "TGAGATTTCAGACTGGATTAGTGCTAG", "fitted relative affinity": "-0.337 z-score"}
{"Oligonucleotide": "TTAGAACTGGGCTTTCGATTAGTGCTA", "fitted relative affinity": "0.79 z-score"}
{"Oligonucleotide": "AGCTGTTTCTGTGTCACAGAGTGCTAG", "fitted relative affinity": "1.39 z-score"}
{"Oligonucleotide": "GACGGTTTCAGTCTCGGGACGTGCTAG", "fitted relative affinity": "6.45 z-score"}
{"Oligonucleotide": "GACGATTTCAGTATGGAGACGTGCTAG", "fitted relative affinity": "-0.0539 z-score"}
{"Oligonucleotide": "TTAGGACTGGGCTATCGGTTAGTGCTA", "fitted relative affinity": "-0.462 z-score"}
{"Oligonucleotide": "TTAGGACTGCTTCTCCTTGAGTGCTAG", "fitted relative affinity": "-0.212 z-score"}
{"Oligonucleotide": "TTAGGACTGGGGACTGGGTCAGTGCTA", "fitted relative affinity": "-0.435 z-score"}
{"Oligonucleotide": "TTAGATTTCAGACTGCATTAGTGCTAG", "fitted relative affinity": "-0.0267 z-score"}
{"Oligonucleotide": "TTTCTTTTCATTACTGCATTGTGCTAG", "fitted relative affinity": "3.71 z-score"}
{"Oligonucleotide": "GACGATTTCGGGGCTGGAGACGTGCTA", "fitted relative affinity": "0.347 z-score"}
{"data": "Sample 2", "target": "Histone acetyltransferase KAT6A, both winged helices, GST fusion (KAT6A, Homo sapiens, UniProt Q92794, residues 1-181)", "method": "protein binding microarray", "molecule type": "double-stranded DNA, one strand shown", "medium": "in vitro", "concentration": "not given", "notes": "8-mer, flanks averaged, mean of 2 arrays, mostly near background", "baseline": "not given", "reading": "higher = stronger binding", "Residues (chain)": "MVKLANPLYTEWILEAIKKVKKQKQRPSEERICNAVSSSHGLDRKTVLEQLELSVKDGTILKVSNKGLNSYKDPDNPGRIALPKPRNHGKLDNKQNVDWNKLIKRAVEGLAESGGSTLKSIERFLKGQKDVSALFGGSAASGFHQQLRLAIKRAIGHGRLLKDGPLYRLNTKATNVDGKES"}
{"Oligonucleotide": "CATGGAAG", "E-score": -0.131}
{"Oligonucleotide": "ACTAGTCG", "E-score": -0.0898}
{"Oligonucleotide": "GATAAATC", "E-score": 0.0233}
{"Oligonucleotide": "ATCAGATC", "E-score": -0.23}
{"Oligonucleotide": "CTTCACTA", "E-score": -0.11}
{"Oligonucleotide": "ATAGCAAA", "E-score": -0.0858}
{"Oligonucleotide": "AGTAACTG", "E-score": -0.158}
{"Oligonucleotide": "CTGTTCGA", "E-score": -0.148}
{"Oligonucleotide": "ATAATCAC", "E-score": 0.034}
{"Oligonucleotide": "CACAAACC", "E-score": -0.185}
{"Oligonucleotide": "ATCTAAGC", "E-score": -0.0317}
{"Oligonucleotide": "GGTAGTGA", "E-score": -0.085}
{"Oligonucleotide": "GGTAGAGA", "E-score": -0.0846}
{"Oligonucleotide": "ACCGGAAG", "E-score": 0.193}
{"Oligonucleotide": "TGGCGTAA", "E-score": 0.0266}
{"Oligonucleotide": "GTAACAAC", "E-score": -0.163}
{"Oligonucleotide": "CCTGACGA", "E-score": -0.126}
{"data": "Sample 3", "target": "CCND2, cyclin fold, Cln2 fusion (human)", "method": "yeast growth competition, sequencing", "medium": "yeast", "notes": "weak parent motif", "baseline": "not given", "reading": "higher = stronger binding", "parent": "RBL1 docking peptide (human); GSAKRRLFGEDPP"}
{"Variant": "S2Y", "normalised enrichment score": 0.483}
{"Variant": "P12A", "normalised enrichment score": 0.591}
{"Variant": "E10D", "normalised enrichment score": 0.479}
{"Variant": "R6I", "normalised enrichment score": 0.337}
{"Variant": "S2C", "normalised enrichment score": 0.596}
{"Variant": "D11Q", "normalised enrichment score": 0.382}
{"Variant": "G1P", "normalised enrichment score": 0.13}
{"Variant": "G9W", "normalised enrichment score": 0.623}
{"Variant": "A3W", "normalised enrichment score": 0.298}
{"Variant": "F8A", "normalised enrichment score": 0.0278}
{"Variant": "S2A", "normalised enrichment score": 0.576}
{"Variant": "R5K F8L", "normalised enrichment score": 0.0128}
{"Variant": "R6N", "normalised enrichment score": 0.537}
{"Variant": "L7A", "normalised enrichment score": 0.112}
{"Variant": "R5T", "normalised enrichment score": -0.243}
{"Variant": "F8P", "normalised enrichment score": 0.264}
{"Variant": "F8Q", "normalised enrichment score": 0.000602}
{"Variant": "S2N", "normalised enrichment score": 0.0739}
{"Variant": "R6L", "normalised enrichment score": 0.414}
{"Variant": "A3G", "normalised enrichment score": 0.243}
{"Variant": "P12R", "normalised enrichment score": 0.316}
{"Variant": "G1R", "normalised enrichment score": 0.51}
{"Variant": "F8V", "normalised enrichment score": 0.293}
{"Variant": "K4N", "normalised enrichment score": 0.199}
{"Variant": "P13I", "normalised enrichment score": 0.434}
{"data": "Sample 4", "target": "ABI1, truncated, D143A, DHFR fusion (Arabidopsis thaliana)", "method": "DHFR PCA, deep sequencing", "medium": "yeast", "notes": "methotrexate growth selection, single substitutions", "together with": "(+)-ABA 0.39 µM", "baseline": "wild-type fitted maximum", "reading": "higher = stronger binding", "parent": "PYL1, truncated, DHFR fusion (Arabidopsis thaliana); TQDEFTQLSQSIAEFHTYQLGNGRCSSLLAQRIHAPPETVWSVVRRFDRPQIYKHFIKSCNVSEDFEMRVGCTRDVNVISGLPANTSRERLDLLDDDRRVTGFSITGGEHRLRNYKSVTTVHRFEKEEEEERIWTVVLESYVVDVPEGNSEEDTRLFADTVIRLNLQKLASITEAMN; partner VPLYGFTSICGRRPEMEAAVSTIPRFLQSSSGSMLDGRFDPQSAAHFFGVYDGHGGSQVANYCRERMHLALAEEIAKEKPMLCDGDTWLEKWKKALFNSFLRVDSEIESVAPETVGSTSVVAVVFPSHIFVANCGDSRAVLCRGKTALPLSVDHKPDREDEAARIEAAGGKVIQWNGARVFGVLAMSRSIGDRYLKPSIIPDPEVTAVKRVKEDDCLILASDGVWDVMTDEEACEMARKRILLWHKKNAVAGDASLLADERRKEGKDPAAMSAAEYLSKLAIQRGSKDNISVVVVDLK"}
{"Variant": "P36H", "relative binding score [%]": 40.8}
{"Variant": "R163L", "relative binding score [%]": 1.51}
{"Variant": "Y18W", "relative binding score [%]": 32}
{"Variant": "T17H", "relative binding score [%]": 1.22}
{"Variant": "F124N", "relative binding score [%]": -4.88}
{"Variant": "L164R", "relative binding score [%]": 37.5}
{"Variant": "H34G", "relative binding score [%]": 15.8}
{"Variant": "R163Q", "relative binding score [%]": 33.8}
{"Variant": "I133R", "relative binding score [%]": 24}
{"Variant": "I12N", "relative binding score [%]": 8.41}
{"Variant": "L138R", "relative binding score [%]": -1.77}
{"Variant": "L29N", "relative binding score [%]": 13.2}
{"Variant": "F56T", "relative binding score [%]": -1.7}
{"Variant": "A84Y", "relative binding score [%]": 98.1}
{"Variant": "E89L", "relative binding score [%]": 1.59}
{"Variant": "R45G", "relative binding score [%]": -2.84}
{"note": "For quick reference, copied from above (sample 4):"}
{"Variant": "H34G", "relative binding score [%]": 15.8}
{"Variant": "F124N", "relative binding score [%]": -4.88}
{"Variant": "I133R", "relative binding score [%]": 24}
{"Variant": "L164R", "relative binding score [%]": 37.5}
{"Variant": "I12N", "relative binding score [%]": 8.41}
